{"data": "Published values gathered from unrelated publications", "note": "“And” joins repeats or separate records; there may be more than shown. ± gives the spread as reported.", "sequence of UniProt P34947 (whole entry, looked up)": "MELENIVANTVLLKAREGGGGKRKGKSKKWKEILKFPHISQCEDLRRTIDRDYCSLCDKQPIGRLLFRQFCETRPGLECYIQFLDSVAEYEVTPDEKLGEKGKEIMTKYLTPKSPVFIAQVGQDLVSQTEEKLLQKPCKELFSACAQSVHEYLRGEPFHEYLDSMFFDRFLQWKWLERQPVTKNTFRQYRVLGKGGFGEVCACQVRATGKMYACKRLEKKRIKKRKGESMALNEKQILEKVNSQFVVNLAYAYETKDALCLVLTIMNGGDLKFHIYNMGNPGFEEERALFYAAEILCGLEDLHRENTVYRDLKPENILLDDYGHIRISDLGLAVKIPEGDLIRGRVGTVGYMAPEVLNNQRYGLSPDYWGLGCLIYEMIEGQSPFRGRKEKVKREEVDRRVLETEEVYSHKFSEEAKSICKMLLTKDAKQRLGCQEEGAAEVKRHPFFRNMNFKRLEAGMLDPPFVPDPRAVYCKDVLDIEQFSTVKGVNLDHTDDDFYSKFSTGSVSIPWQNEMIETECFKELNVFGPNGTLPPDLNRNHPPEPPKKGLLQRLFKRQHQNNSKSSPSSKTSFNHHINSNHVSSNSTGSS"}
{"Structure (SMILES)": "COc1ccccc1-c1n[nH]c2nc(NC3CCN(C(=O)Cc4ccc(F)cc4F)CC3)ncc12", "assay": "bead binding, competition bead pull-down, item: LINJ.30.3560", "system": "Leishmania donovani axenic amastigote extract", "setting": "10 µM", "how to read": "baseline: vehicle", "measurement": "relative abundance", "result": 0.96}
{"Structure (SMILES)": "CC(C)C[C@H](NC(=O)[C@H](Cc1ccccc1)NC(=O)[C@H](C)NC(=O)[C@@H](CS)NC(=O)CNC(=O)[C@H](N)CO)C(=O)N[C@@H](CO)C(=O)N[C@H](C(=O)N[C@@H](CCCCN)C(=O)N[C@@H](CCCCN)C(=O)N[C@@H](CCC(N)=O)C(=O)N[C@@H](Cc1ccccc1)C(=O)N[C@@H](CCC(=O)O)C(=O)N[C@@H](CCC(=O)O)C(=O)N[C@@H](CC(C)C)C(=O)N[C@H](C(=O)N[C@@H](CC(C)C)C(=O)NCC(=O)N[C@@H](CCC(=O)O)C(=O)N[C@@H](Cc1ccccc1)C(=O)N[C@@H](CC(C)C)C(=O)N[C@H](CCCCN)C(=O)N[C@H](CC(C)C)C(=O)N[C@H](CC(=O)O)C(=O)N[C@@H](CCCNC(=N)N)C(=O)N[C@H](CCCNC(=N)N)C(=O)N[C@@H](CCCNC(=N)N)C(=O)N[C@@H](CCCCN)C(=O)O)[C@@H](C)O)C(C)C", "target or system": "A549 SMAC-expressing", "assay": "cell death, annexin V/PI flow cytometry", "setting": "24 h, serum-free medium", "measurement": "IC50", "result": "40 µM"}
{"Structure (SMILES)": "O=C1NC2(CC2)COc2ncc(F)cc2[C@H]2COCCN2c2ccn3ncc1c3n2", "system": "Sprague-Dawley rat, male, plasma", "setting": "oral, 20 mg/kg/day, end of treatment, 4-week repeated-dose toxicity", "measurement": "prothrombin time", "result": "8.8 ± 0.3 s"}
{"Structure (SMILES)": "CC(C)C12OC1C1OC13C1(C)CCC4=C(COC4=O)C1CC1OC13C2OC(=O)CCCOC1OC(CO)C(O)C(O)C1O (stereo not drawn)", "target or system": "NCI-H1299", "assay": "cell growth or viability, XTT", "setting": "47 h", "measurement": "IC50", "result": "11.5 µM"}
{"Structure (SMILES)": "CCCCCCCC(=O)NCCCC[C@H](NC(=O)CCCCCCC)C(=O)N[C@@H](CCCCNC(=O)CCCCCCC)C(=O)NCC(=O)NCC(=O)NCC(=O)N[C@@H](CS)C(=O)N[C@@H](CCCNC(=N)N)C(=O)N[C@@H](CCCCN)C(=O)N1CCC[C@H]1C(=O)N[C@@H](CS)C(=O)N[C@@H](CCCNC(=N)N)C(=O)N[C@@H](CCCCN)C(=O)N1CCC[C@H]1C(N)=O", "target or system": "HEK293", "assay": "cell growth or viability, MTT", "setting": "24 h", "measurement": "IC50", "result": "108 µM"}
{"Structure (SMILES)": "CC(=O)N[C@H](C(=O)N[C@@H](CCCNC(=N)N)C(=O)N[C@@H](CCCCN)C(=O)N[C@@H](CCCNC(=N)N)C(=O)NC(C)(C)C(=O)N[C@@H](CC(C)C)C(=O)N[C@@H](CCCNC(=N)N)C(=O)N[C@@H](CCCNC(=N)N)C(=O)N[C@@H](CC(C)C)C(=O)N[C@@H](CC(C)C)C(=O)N[C@@H](CCC(N)=O)C(=O)NC(C)(C)C(=O)N[C@@H](CCCNC(=N)N)C(=O)N[C@@H](CCC(=O)O)C(=O)N[C@@H](CC(C)C)C(=O)N[C@H](C(=O)N[C@@H](CCC(=O)O)C(N)=O)C(C)C)C(C)C", "target or system": "A-431 (wild-type EGFR)", "assay": "cell viability", "setting": "18 h", "measurement": "IC50", "result": "> 100 µM"}
{"Structure (SMILES)": "CC1CCC2C(C)C(OC(=O)CCC(=O)OC3C(C)OC(n4cc(F)c(=O)[nH]c4=O)C3OC(=O)CCC(=O)OC3OC4OC5(C)CCC6C(C)CCC(C3C)C46OO5)OC3OC4(C)CCC1C32OO4 (stereo not drawn)", "target or system": "A2780", "assay": "cell growth or viability, CCK-8", "measurement": "IC50", "result": "0.83 µM"}
{"Structure (SMILES)": "Cc1cc(Oc2nc(N3CC[C@@H](c4ccncc4)C3)ncc2F)[nH]n1", "target or system": "HEK293", "assay": "cell proliferation", "system": "kidney cancer", "measurement": "IC50", "result": "87.1 µM"}
{"Structure (SMILES)": "CCC1=C(C)C2=C(c3ccc(C(=O)NCCNC(=O)c4ccc(P(=NC(=O)c5ccccn5)(c5ccccc5)c5ccccc5)cc4)cc3)c3c(C)c(CC)c(C)n3[B-](F)(F)[N+]2=C1C", "target or system": "IMR-90", "assay": "cell growth or viability, MTT", "measurement": "IC50", "result": "> 250 µM"}
{"Structure (SMILES)": "Cc1cc(C(=O)Nc2nc3cccc(C)c3n2[C@H]2CCCCN(C(=O)/C=C/CN(C)C)C2)ccn1", "target or system": "Trypanosoma brucei", "assay": "propidium iodide flow cytometry, item: G1 phase", "system": "bloodstream CLK1 over-expression induced", "setting": "concentration not given", "measurement": "cell cycle distribution", "result": "46.5% and 41% and 45.7%"}
{"Structure (SMILES)": "CSCC[C@H](N)C(=O)N[C@@H](C)C(=O)N[C@H](C(=O)N1CCC[C@H]1C(=O)N1CCC[C@H]1C(=O)N[C@H](C(=O)N[C@@H](Cc1ccc(O)cc1)C(=O)N[C@@H](C)C(=O)N[C@@H](CC(=O)O)C(=O)N[C@@H](CC(C)C)C(=O)NCC(=O)N[C@@H](CCCCN)C(=O)N[C@@H](CO)C(=O)N[C@@H](C)C(=O)N[C@@H](CCCNC(=N)N)C(=O)N[C@@H](CC(=O)O)C(=O)N[C@H](C(=O)N[C@@H](Cc1ccccc1)C(=O)N[C@H](C(=O)N[C@@H](CCCCN)C(=O)NCC(=O)N[C@@H](Cc1ccc(O)cc1)C(=O)NCC(=O)N[C@@H](Cc1ccccc1)C(=O)NCC(=O)N[C@@H](CC(C)C)C(=O)N[C@@H](CCCNC(=N)N)C(=O)N[C@@H](CCCCN)C(=O)N[C@@H](CCCCN)C(=O)N[C@@H](CCCNC(=N)N)C(=O)N[C@@H](CCCNC(=N)N)C(=O)N[C@@H](CCC(N)=O)C(=O)N[C@@H](CCCNC(=N)N)C(=O)N[C@@H](CCCNC(=N)N)C(=O)N[C@@H](CCCNC(=N)N)C(=O)NCC(=O)NCC(=O)O)[C@@H](C)O)C(C)C)[C@@H](C)O)C(C)C", "target or system": "MEC1", "assay": "cell growth or viability, flow cytometry", "setting": "90 min", "measurement": "IC50", "result": "> 20 µM"}
{"Structure (SMILES)": "CS(C)(=O)=Nc1ccc(-c2ccc(-c3nc4cc(O[C@@H]5CO[C@H]6[C@@H]5OC[C@H]6O)[nH]c4cc3F)cc2)cc1", "target or system": "GRK5 (Homo sapiens, UniProt P34947)", "assay": "enzyme activity, inhibitor", "setting": "10 µM", "measurement": "inhibition", "result": "-11%"}
{"note": "Excerpt of the above:"}
{"Structure (SMILES)": "CC(C)C12OC1C1OC13C1(C)CCC4=C(COC4=O)C1CC1OC13C2OC(=O)CCCOC1OC(CO)C(O)C(O)C1O (stereo not drawn)", "target or system": "NCI-H1299", "assay": "cell growth or viability, XTT", "setting": "47 h", "measurement": "IC50", "result": "11.5 µM"}
{"Structure (SMILES)": "CSCC[C@H](N)C(=O)N[C@@H](C)C(=O)N[C@H](C(=O)N1CCC[C@H]1C(=O)N1CCC[C@H]1C(=O)N[C@H](C(=O)N[C@@H](Cc1ccc(O)cc1)C(=O)N[C@@H](C)C(=O)N[C@@H](CC(=O)O)C(=O)N[C@@H](CC(C)C)C(=O)NCC(=O)N[C@@H](CCCCN)C(=O)N[C@@H](CO)C(=O)N[C@@H](C)C(=O)N[C@@H](CCCNC(=N)N)C(=O)N[C@@H](CC(=O)O)C(=O)N[C@H](C(=O)N[C@@H](Cc1ccccc1)C(=O)N[C@H](C(=O)N[C@@H](CCCCN)C(=O)NCC(=O)N[C@@H](Cc1ccc(O)cc1)C(=O)NCC(=O)N[C@@H](Cc1ccccc1)C(=O)NCC(=O)N[C@@H](CC(C)C)C(=O)N[C@@H](CCCNC(=N)N)C(=O)N[C@@H](CCCCN)C(=O)N[C@@H](CCCCN)C(=O)N[C@@H](CCCNC(=N)N)C(=O)N[C@@H](CCCNC(=N)N)C(=O)N[C@@H](CCC(N)=O)C(=O)N[C@@H](CCCNC(=N)N)C(=O)N[C@@H](CCCNC(=N)N)C(=O)N[C@@H](CCCNC(=N)N)C(=O)NCC(=O)NCC(=O)O)[C@@H](C)O)C(C)C)[C@@H](C)O)C(C)C", "target or system": "MEC1", "assay": "cell growth or viability, flow cytometry", "setting": "90 min", "measurement": "IC50", "result": "> 20 µM"}
